Results pooled from the literature.
Compare with care: the assays were run in different laboratories. “And” joins repeats or separate records; there may be more than shown. ± gives the spread as reported.
Rhomboid protease AarA: Rhomboid protease AarA (Providencia stuartii, UniProt P46116)
CASP1: Caspase-1 (CASP1, Homo sapiens, UniProt P29466)
KDM1A: Lysine-specific histone demethylase 1A (KDM1A, Homo sapiens, UniProt O60341)
AP3S2: AP-3 complex subunit sigma-2 (AP3S2, Homo sapiens, UniProt P59780)
HSP90AA1 N-terminal domain: Heat shock protein HSP 90-alpha, N-terminal domain (HSP90AA1, Homo sapiens, UniProt P07900)
T1: ssRNA, hairpin with 1x1 G/G internal loops (Homo sapiens); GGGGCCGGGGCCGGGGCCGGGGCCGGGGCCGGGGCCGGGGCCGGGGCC
T2: ssRNA, single strand; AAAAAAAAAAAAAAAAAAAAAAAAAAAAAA

target	assay	test system	conditions	how to read	endpoint	value	SMILES
KMT5A (Homo sapiens, UniProt Q9NQR1)	enzyme activity, radiometric filter		8 h, 1 µM native enzyme		Hill coefficient	3.8	Cc1ccc(N=C2CC(=O)c3sc(C)nc3C2=O)cc1
Rhomboid protease AarA	enzyme activity, inhibitor, fluorogenic peptide substrate				IC50	inactive	COC(=O)C(C)C(=O)Nc1ccccc1OCC1CC1 (stereo not drawn)
CASP1	enzyme activity, inhibitor				kinact/KI	3000 M⁻¹ s⁻¹	CC(=O)N[C@H](C(=O)N[C@@H](CCCCN)C(=O)N[C@@H](CCC(N)=O)C(=O)N[C@@H](CC(=O)O)C(=O)COC(=O)c1c(C)cccc1C)C(C)C
Presenilin-associated rhomboid-like protein, mitochondrial (Parl, Mus musculus, UniProt Q5XJY4)	enzyme activity, inhibitor, competitive ABPP-SILAC, item: Parl	mouse T-cells	concentration not given, 4 h, treated in situ	relative to: DMSO	activity ratio	1.3	O=C(N1CCCC1)n1cc(-c2ccc(-c3ccccc3)cc2)nn1
PTPN2 (Homo sapiens, UniProt P17706, H30A/P33A/R35A)	degrader, bio-layer interferometry		1000 nM	higher = more binding	BLI binding response	0.37 a.u.	Cn1c(=O)n(C2CCC(=O)NC2=O)c2ccc(C3CCN(CC(=O)Nc4cccc(CS(=O)(=O)N5CC[C@H](Nc6cccc(-c7sc(C(=O)O)c(OCC(=O)O)c7Cl)c6)CC5(C)C)c4)CC3)cc21 (stereo partly drawn)
PADI4 (Homo sapiens, UniProt Q9UM07)	surface plasmon resonance				kon	70100 M⁻¹ s⁻¹	Cc1c(C)n(-c2ccc(Br)cc2)c2ncnc(N3CCC(C(N)C(=O)N4CCCC4)CC3)c12 (stereo not drawn)
KDM1A	demethylase activity, inhibitor, Amplex Red		0.00823 µM, with: H3K4me2 peptide	relative to: vehicle	remaining activity	98.1%	Cc1cnc(NC(=O)c2cccc([C@@H]3C[C@H]3NC3CCC3)c2)s1
Vesicular acetylcholine transporter (Rattus norvegicus, UniProt Q62666)		rat liver (sigma2)		relative to: Ki sigma2 over Ki VAChT	selectivity ratio	0.048	OC1CCCCC1N1CCC(c2ccc(Br)cc2)CC1 (racemic)
AP3S2	competitive isoTOP-ABPP, item: AP3S2 cysteine peptide	proteome, soluble, MDA-MB-231	100 µM, with: iodoacetamide probe	relative to: DMSO over compound-treated, higher = stronger cysteine blockade	isoTOP-ABPP competition ratio	1.3	CCCCCCCCCCCCC/C=C/C=O
Trpa1 (Rattus norvegicus, UniProt Q6RI86)	calcium influx, agonist				EC50	inactive	O=C(NC[C@@H](Cc1ccc(F)cc1)N1CCC(O)(C(F)(F)F)CC1)C1(c2ccc(Cl)cc2)CCCC1
ERCC2 (Homo sapiens, UniProt P18074)	inhibitor		concentration not given	relative to: untreated	ATPase activity	101%	CN(C)S(=O)(=O)c1ccc(S(=O)(=O)N2CCC(n3c(=O)[nH]c4ccccc43)CC2)cc1
CASP1	inhibitor		recombinant enzyme		kobs/[I]	45000 M⁻¹ s⁻¹	CC(=O)N[C@@H](CC(=O)O)C(=O)N[C@@H](CCCC(=O)O)C(=O)N[C@@H](CC(C)C)C(=O)N[C@@H](CC(=O)O)C(=O)COC(=O)c1c(C)cccc1C
AP3S2	competitive isoTOP-ABPP, item: AP3S2 cysteine peptide	proteome, soluble, MDA-MB-231	100 µM, with: iodoacetamide probe	relative to: DMSO over compound-treated, higher = stronger cysteine blockade	isoTOP-ABPP competition ratio	1.7	CCCCCC(O)/C=C/C=O (stereo not drawn)
T1, ssRNA, hairpin with 1x1 G/G internal loops (Homo sapiens)	BLI		read off a plot		Kd	22 µM	O=C(CN1CCCN(C(=O)CN2CCCN(Cc3cccc4cnccc34)CC2)CC1)NCCNc1c2ccccc2nc2ccccc12
LPAR1 (Homo sapiens, UniProt Q92633)	G-protein dissociation, agonist, NanoBiT	HEK-293T	1 µM, wild-type receptor	relative to: baseline luminescence	fold change	0.628 and 0.573 and 0.648 and 0.625 and 0.601 and 0.501	CCN(CC)C(CO)c1cccc2c(C)c(C)oc12 (stereo not drawn)
Uncharacterized protein (Trypanosoma cruzi, UniProt Q4DRC3)	inhibitor		with: hypoxanthine varied with PRPP 1 mM		Kii	2.1 ± 0.1 µM	O=c1[nH]cnc2c(CN[C@H](CO)CCP(=O)(O)O)c[nH]c12
CHRM4 (Homo sapiens, UniProt P08173)		membranes	100 µM, 15 h, no carbachol	relative to: control	basal binding	0.72 ± 0.03 fold	CCCCOc1ccc(C(=O)OCCN2CC=CCC2)cc1
CREB-binding protein, bromodomain (CREBBP, Homo sapiens, UniProt Q92793)	thermal stability, DSF		100 µM		ΔTm	3.8 °C	CCOc1ccc(C(C)=O)cc1NC(=O)c1cccc(C(=O)O)c1
CASP1	inhibitor		recombinant enzyme		kobs/[I]	9100 M⁻¹ s⁻¹	CC(=O)N[C@@H](CC(C)C)C(=O)N[C@H](C(=O)N[C@@H](Cc1ccc(O)cc1)C(=O)N[C@@H](CC(=O)O)C(=O)COC(=O)c1c(C)cccc1C)C(C)(C)C
Rhomboid protease AarA	enzyme activity, inhibitor, fluorogenic peptide substrate				IC50	inactive	COc1ccccc1C(=O)C(F)(F)F

target	assay	test system	conditions	how to read	endpoint	value	SMILES
HSP90AA1 N-terminal domain	SPR, two-state model	N-terminal domain			kon	45.3 ± 31.8 M⁻¹ s⁻¹	Cc1cc(C=C2SC(=O)N(Cc3cccc([N+](=O)[O-])c3)C2=O)c(C)n1-c1ccc(Br)c(Cl)c1
Acetyl-CoA synthetase (Cryptococcus neoformans, UniProt J9VFT1)	enzyme activity, inhibitor, coupled pyrophosphate		1.95 µM	higher is more activity	reaction rate	0.00128 a.u.	CN(Cc1cc(C2CC2)on1)C(=O)c1cccc(-c2ccc3c(c2)CCO3)c1
Aminoacyl tRNA synthase complex-interacting multifunctional protein 1 (Homo sapiens, UniProt Q12904)	thermal proteome profiling, item: AIMP1		treated		melting temperature	46.7 °C and 47.4 °C	C=CC(=O)N1CCCC(n2c(=O)c3ncccc3n(Cc3ccc(Oc4ccccc4)cc3)c2=O)C1 (stereo not drawn)
TMEM97 (Homo sapiens, UniProt Q5BJF2)	NIMH-PDSP radioligand binding			relative to: [11C]RX-1	affinity ratio	~2 fold	[2H]C([2H])([18F])Oc1cc(C(=O)OCC2CCN(CCCC)CC2)ccc1N
GPR3 (Homo sapiens, UniProt P46089, I200W)	cAMP GloSensor	human cells	100 nM	higher is more cAMP	cAMP luminescence	41500 a.u. and 52700 a.u. and 38700 a.u. and 39200 a.u.	CC(C)Oc1cc(Cl)ccc1CNc1cc(-c2ccccc2)nc2ncnn12
MC4R (Homo sapiens, UniProt P32245)	ligand displacement, radioligand		1 µM		inhibition	1%	O=C1c2sc(-c3ccc(N4CCC(CO)CC4)nc3F)nc2CCN1c1cccnc1
ADRB2 (Homo sapiens, UniProt P07550)	β-arrestin2 recruitment, PathHunter and GloSensor			relative to: GloSensor IC50 over PathHunter IC50	bias factor	> 100 fold	Fc1ccc(Nc2nc(NC3CCCCC3)c3ccccc3n2)cc1F
KDM1A	demethylase activity, inhibitor, Amplex Red		0.0009145 µM, with: H3K4me2 peptide	relative to: vehicle	remaining activity	104%	O=C(Nc1nncs1)c1cccc([C@@H]2C[C@H]2NC2CCC2)c1
HSP90AA1 N-terminal domain	ITC				ΔG	-4.59 ± 0.56 kcal/mol	C#CCCCn1cnc(N)c2nc(Sc3ccc(C)cc3C)nc1-2
CASP1	enzyme activity, inhibitor				kinact/KI	71000 M⁻¹ s⁻¹	CC(=O)N[C@@H](CC(=O)O)C(=O)N[C@@H](CCCC(=O)O)C(=O)N1[C@H](C(=O)N[C@@H](CC(=O)O)C(=O)COC(=O)c2c(C)cccc2C)C[C@@H]2CCCC[C@@H]21
Interleukin-1 receptor-like 2 (IL1RL2, Homo sapiens, UniProt Q9HB29)	reporter gene (SEAP), inhibitor, HEK-Blue IL-36R reporter	HEK-Blue IL-36R cells	0.046 µM, 6 h, with: IL-36β 3 ng/mL		remaining activity	89.3%	CC(C)[C@@H]1NC(=O)[C@H](Cc2ccccc2)NC(=O)CSC[C@@H](C(N)=O)NC(=O)[C@H](CCC(=O)O)NC(=O)[C@H](CO)NC(=O)[C@H](Cc2c[nH]c3cccc(Cl)c23)NC(=O)[C@H](C2CCCCC2)NC(=O)[C@H](C(C)C)NC(=O)[C@H](Cc2ccc(O)cc2)NC(=O)[C@H](CC(=O)O)NC(=O)[C@H](Cc2c[nH]c3ccccc23)NC(=O)[C@H](Cc2ccc(N)nc2)NC(=O)[C@H](Cc2c[nH]c3ccc(Cl)cc23)NC(=O)[C@H](CCC(=O)O)NC1=O
OPRD1 (Homo sapiens, UniProt P41143)	ligand displacement, radioligand		70 µM		inhibition	-2%	C[Si]1(C[C@H](CN)CC(=O)O)CCCC1
Rhomboid protease AarA	enzyme activity, inhibitor, fluorogenic peptide substrate				IC50	inactive	O=C(OCc1ccccc1)[C@@H]1CC(=O)N1C(=O)NCc1ccccc1
MAPK14 (Homo sapiens, UniProt Q16539)	enzyme activity, inhibitor		0.06097 µM, unit not given	relative to: vehicle	remaining activity	1.03 and 1.05 and 1.22	COC(=O)[C@@]1(C)C=C(C(=O)Nc2cccc(C(=O)Nc3ccc(Nc4nccc(-c5cccnc5)n4)c(C)c3)c2)C(=O)CC1
CASP1	enzyme activity, inhibitor				kinact/KI	20300 M⁻¹ s⁻¹	CC(=O)N[C@H](CCc1ccccc1)C(=O)N[C@@H](CCC(=O)O)C(=O)N[C@@H](CCC(N)=O)C(=O)N[C@@H](CC(=O)O)C(=O)COC(=O)c1c(C)cccc1C
HDAC8 (Homo sapiens, UniProt Q9BY41)	ITC	Tris-HCl buffer	293 K		TΔS°	5.2 kcal/mol	O=C(CCCCCCS)Nc1ccccc1
Rhomboid protease AarA	enzyme activity, inhibitor, fluorogenic peptide substrate				IC50	inactive	CCOc1ccccc1CC(=O)c1nccs1
SMARCA2 (Homo sapiens, UniProt P51531)	binding		1 µM		remaining binding	100%	Cn1cc(-c2cc(N3CCCCS3(=O)=O)ccc2N[C@H]2CC[C@H](C)CC2)c2cc[nH]c2c1=O (stereo in doubt)
T2, ssRNA, single strand	fluorescence turn-on				binding	no binding	CN(C)c1ccc(C2=C/C(=C/C=C/c3sc4ccccc4[n+]3C)c3ccccc3O2)cc1
